Results pooled from the literature.
Protocols differ between the studies behind these lines. ± gives the spread as reported.

SMILES | cell line | assay | setting | how to read | quantity | result
CCC12CCc3c(c4ccccc4n3C)CCN(CC3OC31)C2 (centres unmarked) | BV-2 | western blot | 25 µM, with: LPS | reference: LPS alone | p38 phosphorylation | ~55%
CC(C)(C)C(=O)Nc1ccc2[nH]c(CN3CCC(N(CCCN4CCOCC4)CC4OC(n5cnc6c(N)ncnc65)C(O)C4O)CC3)nc2c1 (centres unmarked) | H460 R231Q cells | tumorsphere formation | 5 µM, 7 to 14 days | – | inhibition | 92.1%
COc1cc2c(OC3OCC(OC)C(OC)C3OC(=O)c3ccc(Br)cc3)c3c(c(-c4ccc5c(c4)OCO5)c2cc1OC)C(=O)OC3 (centres unmarked) | CAL-27 | qRT-PCR, item: CTSD | 0.1, 1, 2 µM, 36 h, with: bafilomycin A1 0.1 µM | reference: DMSO | mRNA level | decreased
COc1cc(CNC(=O)C[C@H](C)CCC=C(C)C)ccc1OCc1cn(-c2ccccc2F)nn1 | LOX IMVI | SRB | 10 µM, 48 h | – | growth | 76.7%
CNC(=O)C1(N)CC2OC1(C)n1c3ccccc3c3c4c(c5c6ccccc6n2c5c31)C(=O)NC4 (centres unmarked) | MOLM-14 | cell proliferation, MTT | 48 h, with: 50% human plasma | reference: 10% FBS | IC50 shift | 9 fold
CC(=O)OC[C@H]1O[C@@H](Sc2sc(C(=O)c3ccc(Br)cc3)c(N)c2-c2nc3ccccc3s2)[C@H](OC(C)=O)[C@@H](OC(C)=O)[C@H]1OC(C)=O | LOX IMVI | SRB | 10 µM, 48 h | – | growth | 96.8%
C[C@H](NC(=O)CNC(=O)[C@H](CCC(=O)O)NC(=O)[C@H](CCC(=O)O)NC(=O)[C@H](CC(=O)O)NC(=O)[C@@H]1CCCN1C(=O)[C@H](Cc1ccccc1)NC(=O)[C@H](CS)NC(=O)[C@H](Cc1ccc(O)cc1)NC(=O)CCCNC(=O)CNC(=O)CNC(=O)[C@@H](C)NC(=O)CN)C(=O)N[C@@H](CS)C(=O)N[C@@H](Cc1ccc(O)cc1)C(N)=O [technetium-99m labelled] | SK-BR-3 | – | 4 h, 37 °C | – | internalization | 9.81 ± 0.17%
COc1cc(CNC(=O)C[C@H](C)CCC=C(C)C)ccc1OCc1cn(-c2ccc(F)cc2)nn1 | LOX IMVI | SRB | 10 µM, 48 h | – | growth | 81.4%
C=CC(=O)Nc1ccc(F)c(-c2ncnc3[nH]cc(C(=O)OCC)c23)c1 | mouse T cells | – | concentration not given, 24 h, with: IL-2 | – | cyclin D3 induction | inhibited
N[C@@H](CSC(F)(F)[18F])C(=O)O | C6 | – | concentration not given, 120 min | – | protein incorporation | 4.5%
CCOC(=O)c1csc2nc(-c3cccc(NC(=O)c4cc5cc(NC(=O)c6ccco6)ccc5n4Cc4ccc(C(F)(F)F)cc4)c3)cn12 | RAW264.7 | – | 10 µM, with: LPS | reference: control | intracellular MDA level | increased
COc1cc(CN2CCN(c3ccc(C(F)(F)F)cc3)CC2)c2cc3[n+](cc2c1O)CCc1cc2c(cc1-3)OCO2 | HeLa and MDCK | SRB | 48 h | reference: CC50 MDCK over IC50 HeLa | therapeutic index | 27.8
COc1cc(CNC(=O)C[C@H](C)CCC=C(C)C)ccc1OCc1cn(-c2cccc(Cl)c2)nn1 | MDA-MB-435 melanoma cells | SRB | 10 µM, 48 h | – | growth percent | 93.8%
CCc1cccc(CC)c1NC(=O)c1nn(C)c2c1CCc1cnc(Nc3ccc(N4CCN(C)CC4)cc3OC)nc1-2 | DLD-1 S611R | cell proliferation | – | reference: DLD-1 S611R over parental DLD-1 | IC50 ratio | 10
CC(C)Cc1ccc(C(C)C(=O)N/N=C/c2ccc(OCC(=O)N/N=C/c3cccc(O)c3)cc2)cc1 (centres unmarked) | U87 MG | MTT | 100 µM, 48 h | – | viability | 107%
C=C(C)[C@@H]1CC[C@]2(C(=O)OCO/N=[N+](\[O-])N3CCCC3)CC[C@]3(C)[C@H](CC[C@@H]4[C@@]5(C)CC[C@H](OC(C)=O)C(C)(C)[C@@H]5CC[C@]43C)[C@@H]12 | B16-F10 | western blot, item: pro-apoptotic proteins | 0.25 to 1.0 µM, 48 h | – | protein level | increased
CS(=O)(=O)c1ccc(-c2nnc(/C=C/c3nnc(-c4ccc(C#N)cc4)o3)n2-c2ccccc2Cl)nc1 | COLO 320DM | immunofluorescence, item: non-phosphorylated β-catenin | 1 µM, 16 h, DMSO 100% | – | active β-catenin level | 26.4%
O=C1OCC2=C1C(c1cccc(Br)c1)C1=C(N2)C(=O)c2ccccc2C1=O (centres unmarked) | SK-LU-1 cells | PI flow cytometry | 0.16 µM, 24 h | – | cells in G2/M phase | 69.2%
CO[C@H]1N(OC)c2ccccc2[C@@]12CN=C(Nc1cc(C(F)(F)F)cc(C(F)(F)F)c1)S2 (relative stereo) | HCT-116 | annexin V/PI flow cytometry | 40 µM, 48 h | – | early apoptotic cells | 34.8 ± 4.88%
Cc1ccc(CN2C(=O)/C(=N\c3ccc(Cl)cc3Br)c3ccccc32)cc1 | B16 | cell growth or viability | 0.4 µM | – | inhibition | 60.8%
CN1CCN(C(=O)N(CCCCCCC(=O)NO)c2ccc(-c3ccc4cnn(C)c4c3)cc2)CC1 | MM1.S and RPMI-8226 | immunoblot, item: cyclin D1 and CDK4 | concentration not given | – | protein level | decreased
COc1ccc(C2=Nn3c(NN=C4C(=O)N(Cc5ccccc5)c5ccc(Cl)cc54)nnc3SC2)cc1 | EKVX | cell growth or viability, SRB | 10 µM | – | inhibition | 12%
Brc1ccc(Nc2nc(NN=Cc3c[nH]c4ccccc34)nc(N3CCOCC3)n2)cc1 | SK-BR-3 | Western blot, item: LC3-II | concentration not given, 12 h | – | protein level | increased
CC(=O)N[C@H](C(=O)N[C@H](C(=O)N[C@@H](CCCNC(=N)N)C(=O)N1Cc2ccccc2C[C@H]1C(=O)N[C@@H](Cc1ccccc1)C(N)=O)C1CCCCC1)C(C)C | MBP-specific BC-3 T cells | Bio-Plex multiplex, item: IL-10 | 200 µg/mL, 24 h, with: MBP87-99 antigen | – | cytokine level | 6.5 ± 2.4 pg/mL
Cc1cc(Nc2ccc(NC(=O)c3ccc(NC(=O)c4ccncc4)cc3)cc2)nc(N)n1 | KG-1 with methylated CMV-luciferase | luciferase reporter gene | 0.1 µM, 24 h | reference: untreated | reporter reactivation | 1 ± 0.1 fold
COc1cc(CNC(=O)C[C@H](C)CCC=C(C)C)ccc1OCc1cn(-c2cccc(C(F)(F)F)c2)nn1 | ACHN | SRB | 10 µM, 48 h | – | growth percent | 77.6%
O=Cc1c(O)ccc2ccccc12 | HUVEC | RNA sequencing, item: FADS2 | 75 µM, 24 h | reference: DMSO | log2 fold change | -3.03

SMILES | cell line | assay | setting | how to read | quantity | result
CC(Cc1ccc(Cl)cc1)=C(c1ccc(Cl)cc1)c1ccc(OCCN(C)C)cc1 | EKVX | cell growth or viability, SRB | – | – | GI50 | 4.75 µM
O=C1NC(=O)C(=Cc2ccc(-c3cccc(C(F)(F)F)c3)o2)S1 | PBMC | ELISA | 10 µM, 288 h | – | IFN-γ level | 146%
COc1ccc(NC(=O)COc2ccc(/C=C/C(C)=N/O)cc2OC)cc1 | SH-SY5Y | flow cytometry | 40 µM, with: amyloid beta 10 µM | – | IL-1β expressing cells | 4.88%
O=C(Nc1cc(Cl)ccc1O)c1nn2c(C(F)(F)F)cc(-c3cc(Br)cs3)nc2c1Br | healthy donor PBMC | ELISA | 2.5 µM, 48 h | – | TNF-alpha level | increased
COc1cccc(/C=N/NC(=O)COc2ccc(/C=N/NC(=O)C(C)c3ccc(CC(C)C)cc3)cc2)c1O (centres unmarked) | U87 MG | MTT | 80 µM, 48 h | – | viability | 40.4%
COc1cc(CNC(=O)C[C@H](C)CCC=C(C)C)ccc1OCc1cn(-c2ccc(C#N)cc2)nn1 | MDA-MB-435 melanoma cells | SRB | 10 µM, 48 h | – | growth percent | 81.3%
C=CCc1ccc(OC(=O)COC(=O)[C@]2(C)C3CC[C@]4(C)C(C(=O)C=C5C6[C@@H](C)[C@H](C)CC[C@]6(C)CC[C@]54C)[C@@]3(C)CC[C@H]2OC(C)=O)c(OC)c1 (some centres unmarked) | RAW264.7 | NO release, inhibitor, Griess | 10 µM, 24 h, LPS-stimulated | – | inhibition | 69.5%
CC(C)Cc1ccc(C(C)C(=O)N/N=C/c2ccc(OCC(=O)N/N=C/c3c(O)ccc4ccccc34)cc2)cc1 (centres unmarked) | U87 MG | MTT | 100 µM, 48 h | – | viability | 96.6%
COc1cc(CNC(=O)C[C@H](C)CCC=C(C)C)ccc1OCc1cn(-c2ccc([N+](=O)[O-])cc2)nn1 | MDA-MB-435 melanoma cells | SRB | 10 µM, 48 h | – | growth percent | 88.2%
CC/C=C\C/C=C\C/C=C\C/C=C\C/C=C\C/C=C\CCC(=O)Nc1ccn(C2OC(CO)C(O)C2(F)F)c(=O)n1 (centres unmarked) | EKVX | cell growth or viability, SRB | – | – | GI50 | 0.852 µM
Cc1ccc(Nc2ncc3c(n2)N(C)C(=O)N(c2cc(NC(=O)c4ccc(N5CCN(C)CC5)c(C(F)(F)F)c4)ccc2C)C3)cn1 | Hep3B | cell growth or viability, ATP luminescence | 72 h | – | GI50 | 0.138 µM
CC(C)C(=O)Cc1c(OCC(O)C(C)(C)O)ccc2ccc(=O)oc12 (centres unmarked) | COLO 320 (ABCB1-overexpressing, multidrug-resistant) | cell growth | 200 µM starting, CI at ED50, with: doxorubicin, ratio 46.4:1 | – | combination index | 0.76
O=C(CCc1ccc(O)cc1)c1c(O)cc(O)cc1OC1OC(CO)C(O)C(O)C1O (centres unmarked) | human cells | luciferase reporter | concentration not given, with: TNF-α | – | NF-κB inhibition | inactive
COc1cc(N2CCN(C(=O)C(N)CCCNC(=N)N)CC2)ccc1Nc1ncc(Cl)c(Nc2ccccc2P(C)(C)=O)n1 (centres unmarked) | NCI-H3122 GID4 knockout | degrader | concentration not given, 24 h | reference: parental cells | EML4-ALK level | no effect
CC(C)=CCc1c(OCC2OC2(C)C)ccc2ccc(=O)oc12 (centres unmarked) | COLO 320 (ABCB1-overexpressing, multidrug-resistant) | cell growth | 150 µM starting, CI at ED50, with: doxorubicin, ratio 557.44:1 | – | combination index | 0.73
COc1cc(CNC(=O)C[C@H](C)CCC=C(C)C)ccc1OCc1cn(-c2ccc(Cl)cc2Cl)nn1 | EKVX | SRB | 10 µM, 48 h | – | growth percent | 81.1%
CCC[C@H]1CC[C@H](c2ccc(NC(=S)NC[C@@H]3[C@@H](O)[C@@H](O)[C@H]4[C@H](O)CCCN43)cc2)CC1 | Huh-7 | fluorescent lectin imaging | 10 µM, 48 h | – | galectin-1 binding to cell surface | decreased
CC1(C)OC(=O)C[C@H](O)[C@]2(C)[C@H]3CC[C@@]4(C)[C@H](c5ccoc5)OC(=O)[C@H]5O[C@]54[C@]3(C)C(=O)C[C@@H]12 | COLO 320 (ABCB1-overexpressing, multidrug-resistant) | cell growth | 200 µM starting, CI at ED50, with: doxorubicin, ratio 46.4:1 | – | combination index | 1.02
COc1cc2c(cc1OC)CN(c1cccc(-c3nc4ccc(N5CCN(C)CC5)cc4[nH]3)c1)CC2 | HT-22 | protection from ferroptosis, CCK-8 viability | 24 h, with: 1 µM erastin | – | EC50 | 1.44 µM
Nc1nc2cc(CC[C@H]3C[C@@H](n4ccc5c(N)ncnc54)[C@H](O)[C@@H]3O)ccc2cc1Br | NCI-H1048 | SmD1/3 dimethylation, item: SmD1/3-Me2 | 10 nM, 48 h | – | inhibition | 80%
CC(=O)OC[C@H]1O[C@@H](Sc2sc(C(=O)c3ccc(C)cc3)c(N)c2-c2nc3ccccc3s2)[C@H](OC(C)=O)[C@@H](OC(C)=O)[C@H]1OC(C)=O | LOX IMVI | SRB | 10 µM, 48 h | – | growth | 92%
CC(C)C[C@H](NC(=O)[C@H](CC(C)C)NC(=O)[C@@H](N)C(C)C)C(=O)N[C@@H](CO)C(=O)N1CCC[C@H]1C(=O)N[C@@H](CC(C)C)C(=O)N[C@@H](CO)C(=O)N[C@@H](CCCNC(=N)N)C(=O)N[C@H](C(=O)O)C(C)C | SK-N-MC, HLA-A*02:01 | quantitative immunopeptidomics | – | – | peptide-MHC complexes per cell | 3 p-MHC complexes/cell
CN1CCc2cc(Nc3ncc(C(F)(F)F)c(NCc4cc[nH]n4)n3)ccc2C1 | GL261 | – | concentration not given, 24 to 72 h | reference: untreated | G2/M cells | increased
CC(C)Cc1ccc(C(C)C(=O)N/N=C/c2ccc(OCC(=O)N/N=C/c3ccc([N+](=O)[O-])cc3)cc2)cc1 (centres unmarked) | U87 MG | MTT | 100 µM, 48 h | – | viability | 73.9%
COc1cc(CNC(=O)C[C@H](C)CCC=C(C)C)ccc1OCc1cn(-c2ccc(Br)cc2)nn1 | LOX IMVI | SRB | 10 µM, 48 h | – | growth | 74%
O=C1Nc2ccc(F)cc2C1=Cc1c(Cl)[nH]c2c1ccc1ccccc12 | colon cancer subpanel of NCI-60 | – | 48 h | – | TGI | 6.92 µM
